Measurements of several laboratories.
Compare with care: the assays were run in different laboratories. Several values in a cell are separate wells, animals, samples, runs or records. Numbers after ± are the reported error.
PSMB6: Proteasome subunit beta type-6 (PSMB6, Homo sapiens, UniProt P28072)
Chain of UniProt P28072 (whole entry, looked up): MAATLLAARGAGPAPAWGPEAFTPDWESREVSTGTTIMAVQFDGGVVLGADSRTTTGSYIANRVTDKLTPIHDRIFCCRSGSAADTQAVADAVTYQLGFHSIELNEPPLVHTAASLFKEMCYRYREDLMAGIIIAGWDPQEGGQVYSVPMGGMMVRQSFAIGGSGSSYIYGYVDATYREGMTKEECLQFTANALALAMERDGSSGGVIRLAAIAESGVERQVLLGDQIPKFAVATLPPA
ABCG2: Broad substrate specificity ATP-binding cassette transporter ABCG2 (ABCG2, Homo sapiens, UniProt Q9UNQ0)
Chain of UniProt Q9UNQ0 (whole entry, looked up): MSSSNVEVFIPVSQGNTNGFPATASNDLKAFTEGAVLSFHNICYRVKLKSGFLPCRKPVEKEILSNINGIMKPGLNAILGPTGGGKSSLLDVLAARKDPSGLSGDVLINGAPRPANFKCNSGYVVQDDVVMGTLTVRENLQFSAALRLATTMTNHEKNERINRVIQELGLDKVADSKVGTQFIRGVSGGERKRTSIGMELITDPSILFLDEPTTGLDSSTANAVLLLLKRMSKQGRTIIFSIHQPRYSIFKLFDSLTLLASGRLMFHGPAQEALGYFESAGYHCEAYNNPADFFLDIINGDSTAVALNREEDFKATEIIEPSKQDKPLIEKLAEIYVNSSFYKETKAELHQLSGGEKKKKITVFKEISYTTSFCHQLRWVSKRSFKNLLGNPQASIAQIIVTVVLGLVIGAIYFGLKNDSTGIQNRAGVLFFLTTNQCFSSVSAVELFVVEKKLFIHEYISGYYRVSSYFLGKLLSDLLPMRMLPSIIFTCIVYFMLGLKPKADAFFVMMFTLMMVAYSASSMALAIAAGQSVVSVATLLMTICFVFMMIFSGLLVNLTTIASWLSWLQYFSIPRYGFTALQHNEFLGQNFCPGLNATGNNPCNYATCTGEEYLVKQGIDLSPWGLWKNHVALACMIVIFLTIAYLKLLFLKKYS
CatSper channel complex: CatSper channel complex (Homo sapiens, UniProt Q7RTX7+Q86XQ3+Q8NEC5+Q96P56)
Chain of UniProt Q8NEC5 (whole entry, looked up): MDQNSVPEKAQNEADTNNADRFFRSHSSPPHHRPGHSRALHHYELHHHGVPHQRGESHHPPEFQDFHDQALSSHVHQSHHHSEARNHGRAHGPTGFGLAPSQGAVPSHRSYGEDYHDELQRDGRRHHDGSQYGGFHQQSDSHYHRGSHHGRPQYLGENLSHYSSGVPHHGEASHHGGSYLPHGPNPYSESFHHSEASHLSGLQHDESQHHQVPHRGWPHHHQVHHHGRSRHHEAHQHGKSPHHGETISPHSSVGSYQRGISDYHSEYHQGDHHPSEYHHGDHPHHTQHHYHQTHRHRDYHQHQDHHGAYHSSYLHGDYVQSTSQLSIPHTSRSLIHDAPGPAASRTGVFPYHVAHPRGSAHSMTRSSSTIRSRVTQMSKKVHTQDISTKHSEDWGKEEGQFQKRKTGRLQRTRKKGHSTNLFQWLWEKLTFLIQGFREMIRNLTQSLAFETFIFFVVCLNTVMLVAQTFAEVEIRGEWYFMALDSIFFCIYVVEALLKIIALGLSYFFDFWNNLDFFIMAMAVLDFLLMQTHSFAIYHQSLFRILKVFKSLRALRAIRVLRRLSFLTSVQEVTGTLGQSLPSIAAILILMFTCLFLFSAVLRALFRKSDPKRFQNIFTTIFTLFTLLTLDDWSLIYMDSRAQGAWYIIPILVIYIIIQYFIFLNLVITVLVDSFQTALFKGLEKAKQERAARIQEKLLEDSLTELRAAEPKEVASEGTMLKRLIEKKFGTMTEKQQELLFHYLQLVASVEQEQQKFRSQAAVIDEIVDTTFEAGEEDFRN
Chain of UniProt Q86XQ3 (whole entry, looked up): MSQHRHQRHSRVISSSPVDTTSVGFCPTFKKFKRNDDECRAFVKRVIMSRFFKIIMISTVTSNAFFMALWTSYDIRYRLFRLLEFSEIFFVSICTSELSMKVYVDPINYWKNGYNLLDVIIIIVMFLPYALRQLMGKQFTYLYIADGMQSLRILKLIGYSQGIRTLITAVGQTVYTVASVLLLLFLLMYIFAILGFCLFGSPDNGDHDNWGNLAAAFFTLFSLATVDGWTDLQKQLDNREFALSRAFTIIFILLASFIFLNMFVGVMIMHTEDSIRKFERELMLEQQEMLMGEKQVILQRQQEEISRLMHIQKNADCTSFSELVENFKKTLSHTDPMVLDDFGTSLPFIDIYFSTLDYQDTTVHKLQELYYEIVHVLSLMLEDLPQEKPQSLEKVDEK
Chain of UniProt Q7RTX7 (whole entry, looked up): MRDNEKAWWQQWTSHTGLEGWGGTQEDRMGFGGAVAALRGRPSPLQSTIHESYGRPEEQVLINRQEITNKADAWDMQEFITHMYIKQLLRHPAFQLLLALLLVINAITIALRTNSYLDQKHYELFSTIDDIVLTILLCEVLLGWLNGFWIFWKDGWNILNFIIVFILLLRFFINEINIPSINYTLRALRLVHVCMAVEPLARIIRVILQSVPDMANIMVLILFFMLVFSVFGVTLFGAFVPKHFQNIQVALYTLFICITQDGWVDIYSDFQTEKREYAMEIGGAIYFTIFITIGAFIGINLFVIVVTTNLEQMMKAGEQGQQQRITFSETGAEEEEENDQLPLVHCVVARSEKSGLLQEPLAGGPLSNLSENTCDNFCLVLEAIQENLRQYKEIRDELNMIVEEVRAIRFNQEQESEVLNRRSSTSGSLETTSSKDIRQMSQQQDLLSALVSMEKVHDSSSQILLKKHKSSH
TOP2A: DNA topoisomerase 2-alpha (TOP2A, Homo sapiens, UniProt P11388)
CA1: Carbonic anhydrase 1 (CA1, Homo sapiens, UniProt P00915)
Chain of UniProt P00915 (whole entry, looked up): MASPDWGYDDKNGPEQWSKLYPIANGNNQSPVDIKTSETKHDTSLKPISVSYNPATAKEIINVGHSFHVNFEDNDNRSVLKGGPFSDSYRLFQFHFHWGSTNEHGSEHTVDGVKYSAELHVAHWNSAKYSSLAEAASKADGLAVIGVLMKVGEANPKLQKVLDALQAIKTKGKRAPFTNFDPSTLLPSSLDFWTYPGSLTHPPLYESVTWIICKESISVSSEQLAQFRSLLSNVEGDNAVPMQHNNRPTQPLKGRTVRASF
USP49 ZnF-UBD domain: Ubiquitin carboxyl-terminal hydrolase 49, ZnF-UBD domain (USP49, Homo sapiens, UniProt Q70CQ1)
Toll-like receptor 3: Toll-like receptor 3 (Homo sapiens, UniProt O15455)
Chain of UniProt O15455 (whole entry, looked up): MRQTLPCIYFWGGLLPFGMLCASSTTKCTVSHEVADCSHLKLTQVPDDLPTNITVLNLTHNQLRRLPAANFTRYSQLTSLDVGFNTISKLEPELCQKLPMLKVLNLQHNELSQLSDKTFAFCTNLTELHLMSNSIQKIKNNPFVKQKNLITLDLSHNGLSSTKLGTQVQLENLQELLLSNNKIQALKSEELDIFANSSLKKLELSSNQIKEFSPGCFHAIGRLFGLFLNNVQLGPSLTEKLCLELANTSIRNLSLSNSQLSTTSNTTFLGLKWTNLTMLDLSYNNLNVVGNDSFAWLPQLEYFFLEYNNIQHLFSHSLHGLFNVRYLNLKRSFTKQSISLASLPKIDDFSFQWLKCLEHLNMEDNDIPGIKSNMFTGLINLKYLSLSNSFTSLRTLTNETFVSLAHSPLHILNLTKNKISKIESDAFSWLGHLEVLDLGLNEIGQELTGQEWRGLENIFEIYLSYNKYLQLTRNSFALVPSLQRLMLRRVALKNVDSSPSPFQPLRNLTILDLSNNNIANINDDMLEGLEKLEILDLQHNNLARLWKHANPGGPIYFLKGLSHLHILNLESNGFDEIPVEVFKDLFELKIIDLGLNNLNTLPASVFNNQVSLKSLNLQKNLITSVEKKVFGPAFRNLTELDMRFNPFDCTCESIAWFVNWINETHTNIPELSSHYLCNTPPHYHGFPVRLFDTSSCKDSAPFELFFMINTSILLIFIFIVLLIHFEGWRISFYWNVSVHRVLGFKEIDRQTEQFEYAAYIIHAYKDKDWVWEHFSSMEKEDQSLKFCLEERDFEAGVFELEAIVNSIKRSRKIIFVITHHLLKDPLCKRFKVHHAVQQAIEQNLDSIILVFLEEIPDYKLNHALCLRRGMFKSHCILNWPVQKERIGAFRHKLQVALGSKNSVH
PLA2G5: Phospholipase A2 group V (PLA2G5, Homo sapiens, UniProt P39877)
Chain of UniProt P39877 (whole entry, looked up): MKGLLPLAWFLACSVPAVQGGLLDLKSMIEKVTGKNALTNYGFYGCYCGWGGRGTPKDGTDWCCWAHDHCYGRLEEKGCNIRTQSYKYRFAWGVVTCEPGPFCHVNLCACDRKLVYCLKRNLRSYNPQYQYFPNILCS
KCNH2: Voltage-gated inwardly rectifying potassium channel KCNH2 (KCNH2, Homo sapiens, UniProt Q12809)
Chain of UniProt Q12809 (whole entry, looked up): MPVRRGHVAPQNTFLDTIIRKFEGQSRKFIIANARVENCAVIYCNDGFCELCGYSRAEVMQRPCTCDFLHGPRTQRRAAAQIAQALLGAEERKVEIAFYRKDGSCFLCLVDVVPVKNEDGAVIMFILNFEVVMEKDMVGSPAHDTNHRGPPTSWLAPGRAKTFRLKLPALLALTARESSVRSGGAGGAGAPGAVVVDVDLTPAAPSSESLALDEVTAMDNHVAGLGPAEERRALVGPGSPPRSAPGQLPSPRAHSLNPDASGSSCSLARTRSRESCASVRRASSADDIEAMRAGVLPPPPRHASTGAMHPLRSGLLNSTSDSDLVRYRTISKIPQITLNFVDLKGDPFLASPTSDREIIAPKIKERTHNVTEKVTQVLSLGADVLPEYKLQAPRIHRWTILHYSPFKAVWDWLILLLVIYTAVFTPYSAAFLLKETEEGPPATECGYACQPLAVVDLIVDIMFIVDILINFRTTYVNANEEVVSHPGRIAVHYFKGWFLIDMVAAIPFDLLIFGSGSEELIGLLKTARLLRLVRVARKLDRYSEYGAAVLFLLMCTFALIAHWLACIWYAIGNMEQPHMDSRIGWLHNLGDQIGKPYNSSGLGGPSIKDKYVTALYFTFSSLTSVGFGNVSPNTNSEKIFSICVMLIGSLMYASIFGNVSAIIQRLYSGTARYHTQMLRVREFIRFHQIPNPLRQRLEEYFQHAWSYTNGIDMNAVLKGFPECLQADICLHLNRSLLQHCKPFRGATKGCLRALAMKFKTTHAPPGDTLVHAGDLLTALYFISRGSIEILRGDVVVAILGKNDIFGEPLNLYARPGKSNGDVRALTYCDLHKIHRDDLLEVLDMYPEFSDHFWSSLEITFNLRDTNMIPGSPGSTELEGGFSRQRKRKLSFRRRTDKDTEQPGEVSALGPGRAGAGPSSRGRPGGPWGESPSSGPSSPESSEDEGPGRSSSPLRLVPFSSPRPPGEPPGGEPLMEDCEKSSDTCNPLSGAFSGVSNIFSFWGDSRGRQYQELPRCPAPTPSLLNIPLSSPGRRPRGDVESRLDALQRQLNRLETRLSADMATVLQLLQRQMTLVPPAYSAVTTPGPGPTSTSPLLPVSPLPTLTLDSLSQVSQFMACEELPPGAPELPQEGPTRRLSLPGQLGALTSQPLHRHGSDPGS

| SMILES | target | assay | test system | conditions | scale | endpoint | value |
| --- | --- | --- | --- | --- | --- | --- | --- |
| COc1ccc(C[C@H](NC(=O)[C@H](C)NC(=O)CN2CCOCC2)C(=O)N[C@@H](CC2CCC(F)(F)CC2)C(=O)[C@@]2(C)CO2)cc1 | PSMB6 | competitive ABPP | Raji cell lysate |  |  | IC50 | > 10 µM |
| COc1ccc2c3c([nH]c2c1)[C@H](CC(C)C)N1C(=O)[C@H](CC(=O)NC2CCCCC2)NC(=O)[C@@H]1C3 | ABCG2 | inhibitor, measured: protoporphyrin IX | A549 | 2 h, together with: 1 mM ALA |  | IC50 | 0.215 µM and 0.0896 µM and 0.0854 µM |
| N=C(N)NC(=O)c1nc(Cl)c(N2CCCCCC2)nc1N | CatSper channel complex | calcium influx, inhibitor, FLIPR | human sperm | together with: high pH, high potassium |  | IC50 | 9.6 µM |
| O=c1nc(SCc2cc(F)cc(C(F)(F)F)c2)nc(SCc2ccc3sccc3c2)[nH]1 | TOP2A | ATPase activity, inhibitor, competitive ATPase |  | together with: 0.5 mM ATP |  | IC50 | 9.4 µM |
| OC1CCN(c2ccc(/C=N/NC(=S)Nc3ccc(F)cc3)cc2)CC1 | CA1 | enzyme activity, inhibitor |  |  |  | IC50 | 0.395 µM |
| COC[C@H](NC(=O)[C@H](CC(C)C)NC(=O)[C@H](Cc1ccccc1)N=[N+]=[N-])C(=O)N[C@H](/C=C/S(C)(=O)=O)Cc1ccc(CN)cc1 | PSMB6 | competitive ABPP | Raji cell lysate |  |  | IC50 | > 10 µM |
| COc1cc2c(cc1OC)C1CC(=O)C(CC(C)C)CN1CC2 (stereo not drawn) | SLC18A2 (Homo sapiens, UniProt Q05940, F135A) | FFN206 uptake, inhibitor, fluorescence imaging |  | F135A mutant, together with: FFN206 5 µM |  | IC50 | 0.514 µM |
| OC1CCN(c2ccc(/C=N/NC(=S)Nc3cccc(Cl)c3Cl)cc2)CC1 | CA1 | enzyme activity, inhibitor |  |  |  | IC50 | 0.309 µM |
| CCc1ccc(Cn2nnc3c4ccc(F)cc4c(=O)[nH]c32)cc1 | PARP15 (Homo sapiens, UniProt Q460N3) |  |  |  |  | IC50 | > 10 µM |
| C=CC(=O)Nc1cc(Nc2nccc(-c3cn(C)c4ccccc34)n2)c(OC)cc1N(C)CCN(C)C | ABCG2 | transport |  |  |  | IC50 | 2 µM |
| Cc1ccc(S(=O)(=O)n2cc(/C=N/NC(=S)Nc3cccc(Cl)c3Cl)c3ccccc32)cc1 | mushroom tyrosinase | enzyme activity, inhibitor |  | together with: L-DOPA substrate |  | IC50 | 11.5 ± 0.36 µM |
| COc1ccc(-c2cncc(N[C@@H](C)c3cccc(NC(=O)c4cncc(C)c4)c3)n2)cc1OC | KIT (Homo sapiens, UniProt P10721) |  |  |  |  | IC50 | 0.02 µM |
| COc1ccc(C[C@H](NC(=O)[C@H](C)NC(=O)CN2CCOCC2)C(=O)N[C@@H](CC2CC3CCC2C3)C(=O)[C@@]2(C)CO2)cc1 (mixture of isomers) | PSMB6 | competitive ABPP | Raji cell lysate |  |  | IC50 | > 10 µM |
| Cc1nc(F)ccc1-c1cc(Cn2ccn(C)c2=N)cc(C(=O)NCc2ccc(Cl)c(Cl)c2)c1 | WD repeat-containing protein 5, SETD1A complex (WDR5, Homo sapiens, UniProt P61964) | SETD1A methyltransferase activity, inhibitor |  | together with: core histones substrate |  | IC50 | > 20 µM |
| Cc1ccc(S(=O)(=O)n2cc(/C=N/NC(=S)NCc3ccccc3)c3ccccc32)cc1 | mushroom tyrosinase | enzyme activity, inhibitor |  | together with: L-DOPA substrate |  | IC50 | 37.6 ± 0.85 µM |
| O=C(O)COc1cnc2ccccc2n1 | USP49 ZnF-UBD domain |  |  |  |  | Kd | > 1000 µM |
| COc1ccc2[nH]c3c(C)cc(-c4nc5ccccc5[nH]4)c(C)c3c2c1 | Toll-like receptor 3 | reporter gene, inhibitor | HEK-Blue hTLR3 | together with: poly(I:C) |  | IC50 | 6.78 ± 1.55 µM |
| O=C(O)CCN1C(=O)CSC1=S | mushroom tyrosinase | enzyme activity, inhibitor |  | 25 °C, together with: L-DOPA 1 mM |  | IC50 | 735 µM |
| O=C(O)CCn1c(=O)oc2ccccc21 | USP49 ZnF-UBD domain |  |  |  |  | Kd | > 1000 µM |
| COc1cc(CNC(=O)c2cccc(CNC3=NCCN3)c2F)cc(OC)c1 | WD repeat-containing protein 5, MLL1 complex (WDR5, Homo sapiens, UniProt P61964) |  |  |  |  | IC50 | > 3 µM |
| CC(=O)Nc1ncc([N+](=O)[O-])s1 | GSK3A (Homo sapiens, UniProt P49840) | kinase activity, inhibitor, Z'-LYTE |  |  |  | IC50 | 5.19 µM |
| COc1ccc(C[C@H](NC(=O)[C@H](C)NC(=O)CN2CCOCC2)C(=O)N[C@@H](CC2CCC3CCCCC3C2)C(=O)[C@@]2(C)CO2)cc1 (stereo partly drawn) | PSMB6 | competitive ABPP | Raji cell lysate |  |  | IC50 | > 10 µM |
| COc1cc(NCC(=O)Nn2c(C)nc3ccc(Cl)cc3c2=O)cc(OC)c1OC | PLA2G5 | enzyme activity, inhibitor, colorimetric |  |  |  | IC50 | 113 ± 1.41 µM |
| CC1(F)CN(C(=O)Cn2c(=O)c(C(=O)NCc3ccc(Cl)cc3)cc3nc(N4CCOC4=O)cnc32)C1 | KCNH2 | potassium current, inhibitor, automated patch clamp | CHO cells expressing hERG |  |  | IC50 | 5.6 µM |

| SMILES | target | assay | test system | conditions | scale | endpoint | value |
| --- | --- | --- | --- | --- | --- | --- | --- |
| Cc1cc(N2CCc3c(c(C)nn3CC34CCC(NC(=O)[C@@H]5COCCN5)(CC3)CC4)C2)c2cnn(C)c2n1 | TLR7 (Homo sapiens, UniProt Q9NYK1) | IFNα release, antagonist | healthy volunteers, whole blood | together with: ssRNA |  | IC50 | 0.003 ± 0.001 µM |
| CC#CC(=O)N1CC[C@@H](n2c(=O)n(-c3ccc(Oc4ccccc4)cc3)c3c(N)ncnc32)C1 | CSK (Homo sapiens, UniProt P41240) |  |  |  |  | IC50 | 0.975 µM |
| CC(C)C[C@H](NC(=O)[C@H](Cc1ccc(O)cc1)NC(=O)[C@@H](N)CCCNC(=N)N)C(=O)N1CCC[C@H]1C(=O)N[C@H](C(=O)O)[C@@H](C)O | rat neuron-specific aminopeptidase | enzyme activity, inhibitor |  |  |  | IC50 | 0.8 µM |
| COC1CCC(C[C@H](NC(=O)[C@H](CC(C)C)NC(=O)c2cnc(C)s2)C(=O)N[C@H](/C=C/S(C)(=O)=O)Cc2ccc(CN)cc2)CC1 (stereo partly drawn) | PSMB6 | competitive ABPP | Raji cell lysate |  |  | IC50 | > 10 µM |
| OC1CCN(c2ccc(/C=N/NC(=S)Nc3ccc(Cl)cc3)cc2)CC1 | CA1 | enzyme activity, inhibitor |  |  |  | IC50 | 0.422 µM |
| CC1=NOC(CNC(=O)c2cnc3c(c(C)nn3C)c2Cl)C1 (stereo not drawn) | MDH2 (Sus scrofa, UniProt P00346) | enzyme activity, reporter counter-screen |  | native enzyme |  | IC50 | > 63 µM |
| CC1(F)CN(C(=O)Cn2c(=O)c(C(=O)NCc3ccc(Cl)cc3)cc3nc(N4CCN(CC(=O)O)C4=O)cnc32)C1 | KCNH2 | ion current, automated patch clamp | CHO expressing hERG |  |  | IC50 | 24 µM |
| COc1cc(N2CCC(N3CCN(C)CC3)CC2)ccc1Nc1ncc(Cl)c(Nc2ccccc2P(C)(C)=O)n1 | ABCG2 | transport, inhibitor | C2BBe1 | together with: cladribine substrate |  | IC50 | 10.1 µM |
| COc1cc(/C=N/n2c(C)nc3ccc(Br)cc3c2=O)ccc1OCc1ccc(Cl)cc1 | PLA2G5 | enzyme activity, inhibitor, colorimetric |  |  |  | IC50 | 49.7 ± 0.71 µM |
| CC(=O)N1C[C@@H](CCN2CCC(c3c[nH]c4cc(Cl)ccc34)CC2)c2ccccc21 | SLC6A4 (Homo sapiens, UniProt P31645) | inhibitor |  |  |  | IC50 | 1.1 µM |
| N#Cc1ccc([C@H]2CCc3cncn32)c(F)c1 | Cytochrome P450 2A6 (CYP2A6, Homo sapiens, UniProt P11509) | inhibitor, measured: coumarin 7-hydroxylation | pooled human liver microsomes | pH 7.4, together with: coumarin 1 µM |  | IC50 | > 100 µM |
| COc1ccc(F)cc1C(=O)NCc1ccc(-c2nn([C@@H](C)C(F)(F)F)c(N)c2C(N)=O)cc1 | YES1 (Homo sapiens, UniProt P07947) | target engagement, NanoBRET tracer displacement | HEK293 |  | above top tested dose | IC50 | > 5 µM |
| O=c1nc(SCc2cc(F)cc(C(F)(F)F)c2)nc(SCc2ccc3nc(Cl)ccc3c2)[nH]1 | TOP2A | ATPase activity, ATP-competitive inhibitor |  | together with: ATP 1 mM |  | IC50 | 31.2 µM |
| Cc1ccc(S(=O)(=O)n2cc(/C=N/NC(=S)Nc3ccccc3)c3ccccc32)cc1 | mushroom tyrosinase | enzyme activity, inhibitor |  | together with: L-DOPA substrate |  | IC50 | 42.2 ± 0.76 µM |
| COc1cc(C(=O)NS(=O)(=O)c2ccccc2C)ccc1Cc1cn(C)c2ccc(NC(=O)OC3CCCC3)cc12 | LRRC8A/LRRC8C (Homo sapiens, UniProt Q8IWT6+Q8TDW0, M48D/T48D) | ion current, inhibitor, whole-cell patch clamp | HCT116 LRRC8-/- transfected | at -100 mV |  | IC50 | 56 µM |
| Cc1c2ccncc2c(C)c2c1[nH]c1ccc(O)cc12 | Toll-like receptor 3 | reporter gene, inhibitor | HEK-Blue hTLR3 | together with: poly(I:C) |  | IC50 | 0.9 ± 0.11 µM |
| CC1=CC(C)=[N+]2C1=Cc1ccc(CCCCCCCCCCCCCCCC(=O)O)n1[B-]2(F)F | EIF2AK2 (Homo sapiens, UniProt P19525) | autophosphorylation, inhibitor, Western blot |  | purified PKR |  | IC50 | 48.3 ± 8.57 µM |
| COc1ccc2c(Cc3ccccc3F)c3n(c(=O)c2c1OC)CCc1cc2c(cc1-3)OCO2 | KCNH2 |  |  | 1 h, pH 7.4 |  | IC50 | > 10 µM |
| CN1CCN(c2ccc(Nc3ncc4cc(C#N)c(=O)n(C5CCCC5)c4n3)cc2)CC1 | FLT1 (Homo sapiens, UniProt P17948) |  |  |  |  | IC50 | 0.121 µM |
| Cc1ncc(C(=O)N[C@H](C(=O)N[C@@H](CC(C)C)C(=O)N[C@H](/C=C/S(C)(=O)=O)Cc2ccc(CN)cc2)C2CCCCC2)s1 | PSMB6 | competitive ABPP | Raji cell lysate |  |  | IC50 | > 10 µM |
| Cc1ccc(S(=O)(=O)n2cc(/C=N/NC(=S)Nc3ccc(C)cc3C)c3ccccc32)cc1 | mushroom tyrosinase | enzyme activity, inhibitor |  | together with: L-DOPA substrate |  | IC50 | 19.4 ± 0.26 µM |
| CC[C@@H]1[C@H](F)C(=O)N[C@@H]1COc1nccc2cc(C(N)=O)c(OC)cc12 | STK24 (Homo sapiens, UniProt Q9Y6E0) | ATP probe binding, KiNativ profiling, measured: MST3 Lys1 probe site | THP-1 cell lysate |  |  | IC50 | > 5 µM |
| Cc1cc(C)c2nc(C)cc(NCCc3ccccc3)c2c1 | CatSper channel complex | calcium influx, inhibitor, FLIPR | human sperm | together with: high pH, high potassium |  | IC50 | 7.8 µM |
| Cc1cc2c(F)c(Oc3ncnn4cc(OC[C@@H](C)O)c(C)c34)ccc2[nH]1 | ABCG2 | inhibitor |  | 30 min |  | IC50 | 6.98 µM |
